Assay results pooled from the literature.
Parts stem from different laboratories: compare values within a part only.

Series 1
Target: Histone acetyltransferase KAT6A, winged helix 2, GST fusion (KAT6A, Homo sapiens, UniProt Q92794, residues 85-181)
Technique: protein binding microarray
Form: double-stranded DNA, one strand shown
Matrix: in vitro
Concentration: not given
Notes: 8-mer, flanks averaged, mean of 2 arrays, mostly near background
Baseline: not given
Reading: higher = stronger binding
Residues (chain): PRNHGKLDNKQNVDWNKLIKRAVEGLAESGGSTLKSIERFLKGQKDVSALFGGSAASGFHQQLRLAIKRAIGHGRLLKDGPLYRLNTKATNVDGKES
Sequence	E-score
AGAGACAA	-0.0452
CTACGCAA	0.00366
CACTGTCA	-0.0884
AAGGGACG	-0.134
GCGTACAA	-0.0101
GAACCAGA	-0.0402
ACTACTTC	-0.135
ACGGGGAT	0.0222

Series 2
Target: Ras GTPase-activating protein-binding protein 1, RRM domain (G3BP1, Homo sapiens, UniProt Q13283)
Chain of UniProt Q13283 (whole entry, looked up): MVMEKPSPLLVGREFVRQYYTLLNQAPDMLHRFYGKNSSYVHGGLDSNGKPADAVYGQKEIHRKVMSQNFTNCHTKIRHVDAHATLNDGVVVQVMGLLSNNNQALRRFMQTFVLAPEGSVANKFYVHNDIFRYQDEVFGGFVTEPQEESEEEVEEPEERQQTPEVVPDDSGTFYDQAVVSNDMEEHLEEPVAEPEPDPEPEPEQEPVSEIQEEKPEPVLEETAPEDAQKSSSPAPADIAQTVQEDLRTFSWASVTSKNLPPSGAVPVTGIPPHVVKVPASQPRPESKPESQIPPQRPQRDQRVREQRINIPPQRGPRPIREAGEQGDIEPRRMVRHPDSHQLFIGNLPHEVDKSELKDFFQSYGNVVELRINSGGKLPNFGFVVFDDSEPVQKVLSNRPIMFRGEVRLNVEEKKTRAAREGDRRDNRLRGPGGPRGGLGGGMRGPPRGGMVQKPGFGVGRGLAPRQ
Technique: RNA Bind-n-Seq
Form: RNA
Matrix: in vitro
Concentration: 1 µM
Notes: whole 134-nt RNA, ends assumed
Added: 150 mM KCl
Baseline: input library
Reading: higher = stronger binding
Constant ends, left off below: GGGAGUUCUACAGUCCGACGAUC … UGGAAUUCUCGGGUGUCAAGG
Sequence	log2 enrichment
UGGCCCUGGUGGCAUGCGGCGAGGAAGAGGUGGCCUCAUGGAUCGUGGUGGUCCCGGUGGAAUGUUCAGAGGUGGCCGUGGUGGAGACAG	0.977
CAAGUCCUGUGCUACACAUCGUAUGUACCGAAUCGGGUUUGGGUUUGGGGUUUGGGAAAGUAUUAUGUUACGCCGUUCGGAUCUGCACUU	0.713
UUUUUGAAUCAAUUUUUAAAACAUGCCAUUGUGUUUCAGGCUCGCGGGAUUGAUGUGCAACAAGUGUCUUUGGUUAUAAAUUAUGAUCUA	-0.17
AAUUCUCAUUUCUCGACAUAAAGCCUUGUCUAAAGUGAGAUGUUUUCCAGGUCAUACAUAGGUUUCUCCCUGGGGUAAUUGGAAGUUCUU	-0.323
AAGUCCUGUGCUACACAUCGUAUGUACCGAAUCGGUUUGGAAAAAGGUUUUUUUGGAAAGUAUUAUGUUACGCCGUUCGGAUCUGCACUU	-0.271
CCUCAAGUCCUGUGCUACACAUCGUAUGUACCGAAUCGGGAAGGGAAGGAAGGAAAGUAUUAUGUUACGCCGUUCGGAUCUGCACUUCCA	-0.262
ACCAUGCAGGUGGGCAUCUUUGGGAAGUGGGGCAAGGGGGGGAUAGGGAGGGGGGUAACACUUUGGGAACAAGUGGUCCCAGGUCGUUUC	0.8
CACAGACAACACGCUCCCACACAGACACAGAGGGAAGGGGUUGGGAUGGGGACAGGGUGCACAGCAGGGCGGGGUAGGACCCCAGCCCCU	-0.0602
GUCCUGUGCUACACAUCGUAUGUACCGAAUCGGGGAAAAAAAGGGGUGGGGAAAGGGGAAAGUAUUAUGUUACGCCGUUCGGAUCUGCAC	0.921
CACAGACAACACGCACCCACACAGACACAGAGGGAAGGGGUUGGGAUGGGGACAGGGUGCACAGCACGGCGGGGUAGGACCCCAGCCCCU	-0.518
GUCCUGUGCUACACAUCGUAUGUACCGAAUCGGGCCCCCCGGCCCCCCGGGCCCCCCGGAAAGUAUUAUGUUACGCCGUUCGGAUCUGCA	-0.417

Series 3
Target: Interferon regulatory factor 7, full length, phosphomimetic (IRF7, Homo sapiens, UniProt Q92985, residues 1-503, S101K/S471D/S472D/S475D/S476D/S477D/S483D/S484D/S487D)
Chain of UniProt Q92985 (whole entry, unmodified, looked up): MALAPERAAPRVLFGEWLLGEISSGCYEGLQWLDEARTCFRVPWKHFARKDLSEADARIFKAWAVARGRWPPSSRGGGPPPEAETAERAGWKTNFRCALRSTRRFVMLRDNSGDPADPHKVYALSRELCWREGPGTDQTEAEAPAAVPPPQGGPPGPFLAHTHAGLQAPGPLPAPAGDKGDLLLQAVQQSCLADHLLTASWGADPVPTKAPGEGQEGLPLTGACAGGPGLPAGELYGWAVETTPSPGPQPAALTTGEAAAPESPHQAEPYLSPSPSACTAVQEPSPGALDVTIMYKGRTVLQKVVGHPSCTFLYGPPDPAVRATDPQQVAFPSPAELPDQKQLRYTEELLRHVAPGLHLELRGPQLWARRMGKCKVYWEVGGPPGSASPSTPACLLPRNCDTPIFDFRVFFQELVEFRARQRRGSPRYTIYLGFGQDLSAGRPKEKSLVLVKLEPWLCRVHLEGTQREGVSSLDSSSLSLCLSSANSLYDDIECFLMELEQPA
Technique: protein-binding microarray
Form: double-stranded DNA, one strand shown
Matrix: in vitro
Concentration: 250 nM
Notes: 60-bp whole probe
Added: salmon DNA 0.4 mg/ml
Baseline: random background probes
Reading: higher = stronger binding
Constant ends, left off below: GCCTAGCAC … GTCTTGATTCGCTTGACGCTGCTG
Sequence	log fluorescence
TCATTTTTGCAAGCTAAAACTGTGCTA	0.575 z-score
GACGGTCTCCTACTGCTGATGTGCTAG	-0.127 z-score
TTAGGACTGGGTATTGGTTAGTGCTAG	-0.228 z-score
TTAGATTTCAGTCTCGGTTAGTGCTAG	2.19 z-score
TCATGAACCATTTTGGTACTGTGCTAG	-0.249 z-score
GACGATTTCGGGTATTGAGACGTGCTA	0.549 z-score

Single results of other studies
Molecule	target	assay	test system	setting	how to read	measurement	result
PhoQ, residues 284 288 289 292 302 303 WVSSAF	PhoP, residues 12 14 15 18 19 GQALL (Escherichia coli, UniProt P23836)	Sort-seq, refers to: YFP reporter	E. coli	PhoQ-PhoP variant library, added: 10 µM Mg2+	baseline: high Mg2+ state, higher = stronger signaling	fold induction	6.69

A few entries again (series 1):
Sequence	E-score
GAACCAGA	-0.0402
ACTACTTC	-0.135
AGAGACAA	-0.0452
